Assay results pooled from the literature.
Each line is one published result; not all experiments were run side by side.
riboswitch RNA SAM-I metF-H2: riboswitch RNA SAM-I metF-H2 (Thermoanaerobacter tengcongensis)
T1: riboswitch RNA (Mesoplasma florum); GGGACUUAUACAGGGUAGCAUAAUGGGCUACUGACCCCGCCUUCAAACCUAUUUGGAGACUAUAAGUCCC
T2: riboswitch RNA SAM-I metF-H2 (Thermoanaerobacter tengcongensis); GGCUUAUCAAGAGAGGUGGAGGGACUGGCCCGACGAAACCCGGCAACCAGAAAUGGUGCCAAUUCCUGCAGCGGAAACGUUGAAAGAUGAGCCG
T3: riboswitch RNA A38C/U39C (Bacillus); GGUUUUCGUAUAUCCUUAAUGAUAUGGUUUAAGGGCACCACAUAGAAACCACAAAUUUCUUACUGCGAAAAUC
T4: riboswitch RNA, extra G-C pair, UUCG loop; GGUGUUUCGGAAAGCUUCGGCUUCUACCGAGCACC
T5: riboswitch RNA G16C (Synechocystis sp. PCC 6803); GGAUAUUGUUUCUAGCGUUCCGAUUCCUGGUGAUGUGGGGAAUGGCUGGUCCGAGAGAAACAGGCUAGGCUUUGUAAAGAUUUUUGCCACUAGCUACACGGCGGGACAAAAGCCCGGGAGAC
T6: riboswitch RNA (Paenibacillus durus); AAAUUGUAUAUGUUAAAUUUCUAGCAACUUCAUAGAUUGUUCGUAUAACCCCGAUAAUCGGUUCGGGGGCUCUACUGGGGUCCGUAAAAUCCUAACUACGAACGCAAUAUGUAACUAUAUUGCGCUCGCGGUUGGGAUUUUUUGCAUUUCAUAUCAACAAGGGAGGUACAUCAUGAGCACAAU

For `O=c1ccn([C@@H]2O[C@H](CO)[C@@H](O)[C@H]2O)c(=O)[nH]1`, binding read “no binding” (T1, riboswitch RNA (Mesoplasma florum); NMR).
`Nc1ncnc2c1ncn2[C@@H]1O[C@H](C[C@@H](N)CC[C@H](N)C(=O)O)[C@@H](O)[C@H]1O`: binding “binds” (T2, riboswitch RNA SAM-I metF-H2 (Thermoanaerobacter tengcongensis); X-ray crystallography; together with: Mg2+).
`O=c1[nH]cnc2c1ncn2[C@H]1C[C@H](O)[C@@H](CO)O1`: binding “no binding” (T1, riboswitch RNA (Mesoplasma florum); NMR).
`Nc1nc2c(ncn2[C@H]2C[C@H](O)[C@@H](CO)O2)c(=O)[nH]1` — result for binding: “binds” (T3, riboswitch RNA A38C/U39C (Bacillus); ITC; KCl 50 mM).
`C[S+](CC[C@H](N)C(=O)O)C[C@H]1O[C@@H](n2cnc3c(N)ncnc32)[C@H](O)[C@@H]1O` (stereo partly drawn) — result for binding: “binds” (T2, riboswitch RNA SAM-I metF-H2 (Thermoanaerobacter tengcongensis); X-ray crystallography; together with: Mg2+, K+).
`NC[C@H]1O[C@H](O[C@H]2[C@H](O)[C@@H](O[C@H]3O[C@H](CO)[C@@H](O)[C@H](N)[C@H]3O)[C@H](N)C[C@@H]2N)[C@H](O)[C@@H](O)[C@@H]1O` — result for binding: “binds” (T4, riboswitch RNA, extra G-C pair, UUCG loop; 1H,15N-HSQC NMR; pH 6.2, 283 K).
For `NC(=O)c1ccc[n+]([C@@H]2O[C@H](COP(=O)([O-])OP(=O)(O)OC[C@H]3O[C@@H](n4cnc5c(N)ncnc54)[C@H](O)[C@@H]3O)[C@@H](O)[C@H]2O)c1`, binding read “no binding” (T1, riboswitch RNA (Mesoplasma florum); NMR).
`N=C(N)N`: binding “no binding” (T5, riboswitch RNA G16C (Synechocystis sp. PCC 6803); in-line probing; 316 µM).
For `O=c1[nH]cnc2nc[nH]c12`, binding read “no binding” (T6, riboswitch RNA (Paenibacillus durus); transcription termination, function, single-round transcription termination; together with: RNA polymerase).

Repeated from above:
`NC[C@H]1O[C@H](O[C@H]2[C@H](O)[C@@H](O[C@H]3O[C@H](CO)[C@@H](O)[C@H](N)[C@H]3O)[C@H](N)C[C@@H]2N)[C@H](O)[C@@H](O)[C@@H]1O` — result for binding: “binds” (T4, riboswitch RNA, extra G-C pair, UUCG loop; 1H,15N-HSQC NMR; pH 6.2, 283 K).
